Experimental data gathered from unrelated publications.
Every numbered part comes from another study and shows a few of its results, in no order.
UniProt P10721, sequence (whole entry, unmodified, looked up): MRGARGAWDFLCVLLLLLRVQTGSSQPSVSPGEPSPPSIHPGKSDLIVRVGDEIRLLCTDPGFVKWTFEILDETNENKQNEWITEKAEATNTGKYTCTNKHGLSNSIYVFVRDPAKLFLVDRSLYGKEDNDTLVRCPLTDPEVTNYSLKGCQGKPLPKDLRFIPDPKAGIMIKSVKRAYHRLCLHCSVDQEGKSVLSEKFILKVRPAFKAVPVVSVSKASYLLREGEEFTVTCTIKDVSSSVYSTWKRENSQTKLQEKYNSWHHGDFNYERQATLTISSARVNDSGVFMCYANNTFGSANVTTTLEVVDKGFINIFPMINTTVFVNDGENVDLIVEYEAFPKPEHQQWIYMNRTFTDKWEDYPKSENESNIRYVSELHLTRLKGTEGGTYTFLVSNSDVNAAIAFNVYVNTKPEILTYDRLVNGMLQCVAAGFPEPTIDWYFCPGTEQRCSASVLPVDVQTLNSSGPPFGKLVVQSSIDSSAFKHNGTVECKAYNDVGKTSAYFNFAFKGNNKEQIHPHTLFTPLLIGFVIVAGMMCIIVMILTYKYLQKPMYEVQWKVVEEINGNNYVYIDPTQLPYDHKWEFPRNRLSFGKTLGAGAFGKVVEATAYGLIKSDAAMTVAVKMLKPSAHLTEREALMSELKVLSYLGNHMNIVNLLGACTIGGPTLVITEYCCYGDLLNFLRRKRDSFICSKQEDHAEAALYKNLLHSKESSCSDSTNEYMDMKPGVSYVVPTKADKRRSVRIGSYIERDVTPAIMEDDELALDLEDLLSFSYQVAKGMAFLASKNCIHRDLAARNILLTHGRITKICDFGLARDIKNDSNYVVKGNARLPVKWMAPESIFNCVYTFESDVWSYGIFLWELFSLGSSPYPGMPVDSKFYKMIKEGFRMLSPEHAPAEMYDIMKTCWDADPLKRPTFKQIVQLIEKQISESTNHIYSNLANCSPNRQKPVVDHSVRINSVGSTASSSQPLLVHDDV
UniProt O94768, sequence (whole entry, looked up): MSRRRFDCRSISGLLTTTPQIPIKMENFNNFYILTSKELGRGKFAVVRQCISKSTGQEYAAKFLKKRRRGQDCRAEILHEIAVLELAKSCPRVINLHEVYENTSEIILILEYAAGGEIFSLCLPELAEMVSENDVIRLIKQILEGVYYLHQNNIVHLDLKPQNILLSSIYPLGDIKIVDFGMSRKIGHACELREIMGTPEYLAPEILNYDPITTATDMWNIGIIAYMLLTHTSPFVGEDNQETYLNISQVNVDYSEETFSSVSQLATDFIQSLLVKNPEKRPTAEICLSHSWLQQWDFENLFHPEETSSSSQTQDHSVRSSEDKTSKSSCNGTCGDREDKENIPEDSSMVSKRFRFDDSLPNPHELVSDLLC
UniProt Q9HC98, sequence (whole entry, looked up): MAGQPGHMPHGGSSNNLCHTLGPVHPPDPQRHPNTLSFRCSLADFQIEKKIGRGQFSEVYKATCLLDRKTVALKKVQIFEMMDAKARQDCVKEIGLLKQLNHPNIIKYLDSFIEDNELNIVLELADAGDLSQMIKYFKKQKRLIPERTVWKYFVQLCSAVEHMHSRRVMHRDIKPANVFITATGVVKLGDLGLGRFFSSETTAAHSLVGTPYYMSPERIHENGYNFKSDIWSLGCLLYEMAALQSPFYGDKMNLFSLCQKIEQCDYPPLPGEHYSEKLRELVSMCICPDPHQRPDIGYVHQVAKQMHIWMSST
UniProt P41240, sequence (whole entry, looked up): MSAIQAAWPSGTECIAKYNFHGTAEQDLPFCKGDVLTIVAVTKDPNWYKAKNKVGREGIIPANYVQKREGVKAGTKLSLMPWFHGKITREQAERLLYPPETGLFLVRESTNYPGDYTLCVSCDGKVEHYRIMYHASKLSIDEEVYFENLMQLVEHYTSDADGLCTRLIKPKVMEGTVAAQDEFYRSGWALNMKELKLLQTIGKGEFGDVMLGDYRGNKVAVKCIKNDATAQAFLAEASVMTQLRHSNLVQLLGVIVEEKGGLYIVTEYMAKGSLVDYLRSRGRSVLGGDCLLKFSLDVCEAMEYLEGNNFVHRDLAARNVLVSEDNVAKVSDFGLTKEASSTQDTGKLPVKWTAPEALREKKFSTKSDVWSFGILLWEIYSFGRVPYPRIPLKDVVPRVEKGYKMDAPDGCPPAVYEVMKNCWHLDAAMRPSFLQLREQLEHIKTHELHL
UniProt Q96L34, sequence (whole entry, looked up): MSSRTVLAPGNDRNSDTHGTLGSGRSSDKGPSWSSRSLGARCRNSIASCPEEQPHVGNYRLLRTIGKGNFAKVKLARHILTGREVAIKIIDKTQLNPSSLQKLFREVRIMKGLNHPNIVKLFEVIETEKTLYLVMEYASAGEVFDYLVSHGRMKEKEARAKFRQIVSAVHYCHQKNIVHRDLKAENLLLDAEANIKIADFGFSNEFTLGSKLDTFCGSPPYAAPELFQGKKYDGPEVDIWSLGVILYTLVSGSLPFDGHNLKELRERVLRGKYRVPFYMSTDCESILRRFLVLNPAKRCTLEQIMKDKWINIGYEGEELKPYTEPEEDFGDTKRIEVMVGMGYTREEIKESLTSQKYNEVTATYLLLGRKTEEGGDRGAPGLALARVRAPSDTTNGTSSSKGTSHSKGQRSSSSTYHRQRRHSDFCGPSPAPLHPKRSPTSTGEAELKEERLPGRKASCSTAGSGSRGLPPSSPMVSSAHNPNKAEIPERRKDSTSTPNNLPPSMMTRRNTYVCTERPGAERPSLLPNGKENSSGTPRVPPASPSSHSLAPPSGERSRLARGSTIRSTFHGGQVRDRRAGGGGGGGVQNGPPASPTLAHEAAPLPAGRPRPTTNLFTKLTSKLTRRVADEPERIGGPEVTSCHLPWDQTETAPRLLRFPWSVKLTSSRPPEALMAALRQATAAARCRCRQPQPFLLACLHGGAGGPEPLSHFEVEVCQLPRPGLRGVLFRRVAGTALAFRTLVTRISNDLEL
UniProt P53778, sequence (whole entry, looked up): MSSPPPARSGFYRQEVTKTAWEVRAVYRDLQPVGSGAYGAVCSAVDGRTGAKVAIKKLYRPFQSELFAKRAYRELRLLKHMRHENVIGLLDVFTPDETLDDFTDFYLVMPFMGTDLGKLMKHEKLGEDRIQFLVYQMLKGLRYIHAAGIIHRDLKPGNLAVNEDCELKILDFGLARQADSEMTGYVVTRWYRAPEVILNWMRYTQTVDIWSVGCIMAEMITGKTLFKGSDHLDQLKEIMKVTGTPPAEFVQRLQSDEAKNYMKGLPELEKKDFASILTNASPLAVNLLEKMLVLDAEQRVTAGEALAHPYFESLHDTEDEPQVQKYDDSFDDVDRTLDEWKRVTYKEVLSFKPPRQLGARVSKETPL
UniProt O00238, sequence (whole entry, looked up): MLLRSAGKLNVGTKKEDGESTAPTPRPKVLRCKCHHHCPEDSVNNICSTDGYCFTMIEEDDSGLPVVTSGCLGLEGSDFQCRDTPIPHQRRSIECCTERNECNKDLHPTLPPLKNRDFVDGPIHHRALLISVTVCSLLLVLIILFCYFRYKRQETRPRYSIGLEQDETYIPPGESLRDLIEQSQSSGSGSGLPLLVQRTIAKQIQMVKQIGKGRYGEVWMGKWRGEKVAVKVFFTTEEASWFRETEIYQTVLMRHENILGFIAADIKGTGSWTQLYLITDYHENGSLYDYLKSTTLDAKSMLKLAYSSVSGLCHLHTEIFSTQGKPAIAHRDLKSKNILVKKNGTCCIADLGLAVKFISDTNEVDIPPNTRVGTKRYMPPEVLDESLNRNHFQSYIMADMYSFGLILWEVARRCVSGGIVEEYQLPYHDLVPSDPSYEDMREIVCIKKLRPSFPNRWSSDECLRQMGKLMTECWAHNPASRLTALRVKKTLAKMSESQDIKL
UniProt Q96SB4, sequence (whole entry, looked up): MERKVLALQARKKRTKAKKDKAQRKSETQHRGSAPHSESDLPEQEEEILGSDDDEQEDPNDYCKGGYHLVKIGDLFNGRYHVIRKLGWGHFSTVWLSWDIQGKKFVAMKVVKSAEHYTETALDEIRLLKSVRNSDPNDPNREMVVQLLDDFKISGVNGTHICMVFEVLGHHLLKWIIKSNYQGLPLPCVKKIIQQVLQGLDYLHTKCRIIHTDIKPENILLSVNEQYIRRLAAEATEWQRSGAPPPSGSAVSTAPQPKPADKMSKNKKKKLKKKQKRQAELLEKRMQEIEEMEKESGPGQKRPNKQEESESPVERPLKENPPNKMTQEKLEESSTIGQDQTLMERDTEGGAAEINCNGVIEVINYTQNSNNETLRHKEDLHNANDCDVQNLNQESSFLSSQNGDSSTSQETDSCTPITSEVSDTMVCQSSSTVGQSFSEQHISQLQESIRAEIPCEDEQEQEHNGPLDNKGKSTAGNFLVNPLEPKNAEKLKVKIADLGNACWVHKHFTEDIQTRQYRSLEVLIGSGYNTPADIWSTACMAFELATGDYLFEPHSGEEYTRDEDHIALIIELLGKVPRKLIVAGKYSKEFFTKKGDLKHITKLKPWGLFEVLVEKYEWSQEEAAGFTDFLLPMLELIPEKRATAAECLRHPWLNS
UniProt Q8N752, sequence (whole entry, looked up): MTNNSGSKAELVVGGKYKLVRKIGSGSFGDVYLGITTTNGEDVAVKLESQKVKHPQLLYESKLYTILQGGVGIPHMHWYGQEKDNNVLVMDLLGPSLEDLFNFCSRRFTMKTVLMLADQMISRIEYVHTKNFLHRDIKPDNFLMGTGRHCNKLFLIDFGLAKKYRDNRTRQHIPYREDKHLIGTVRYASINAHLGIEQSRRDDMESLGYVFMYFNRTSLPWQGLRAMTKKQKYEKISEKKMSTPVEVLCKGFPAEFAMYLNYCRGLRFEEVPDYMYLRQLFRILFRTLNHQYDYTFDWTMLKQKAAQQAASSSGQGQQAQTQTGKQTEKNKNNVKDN

Set 1
SMILES: c1cc(-c2cnn3cc(-c4ccc(OCCN5CCCCC5)cc4)cnc23)ccn1
Observed: enzyme activity
Mode: inhibitor
Tested at: 0.5 µM
Baseline: control
Quantity: remaining activity
CSNK2A1 (Homo sapiens, UniProt P68400): 87.5%
MAP2K6 (Homo sapiens, UniProt P52564): 87.8%
Cyclin-dependent kinase 9, with cyclin T1 (CDK9, Homo sapiens, UniProt P50750): 65%
EPHA5 (Homo sapiens, UniProt P54756): 66.4%
KIT (Homo sapiens, UniProt P10721): 21.4%
MKNK2 (Homo sapiens, UniProt Q9HBH9): 65.4%
LYN (Homo sapiens, UniProt P07948): 12.9%
CSNK1A1 (Homo sapiens, UniProt P48729): 55.1%
IRAK4 (Homo sapiens, UniProt Q9NWZ3): 105%
LRRK2 (Homo sapiens, UniProt Q5S007): 103%
CHEK1 (Homo sapiens, UniProt O14757): 86.4%
PRKCD (Homo sapiens, UniProt Q05655): 93.9%
BTK (Homo sapiens, UniProt Q06187): 42.8%
PLK2 (Homo sapiens, UniProt Q9NYY3): 97.1%
PRKCI (Homo sapiens, UniProt P41743): 98.1%
MAP3K10 (Homo sapiens, UniProt Q02779): 95.8%
MAPK13 (Homo sapiens, UniProt O15264): 96.9%
NEK4 (Homo sapiens, UniProt P51957): 82.5%
MAP4K2 (Homo sapiens, UniProt Q12851): 10.8%
MAPK12 (Homo sapiens, UniProt P53778): 100%
AKT3 (Homo sapiens, UniProt Q9Y243): 104%

Set 2
Compound: O=C(Nc1ccccc1)Nc1cccc(Oc2ccc3nccn3n2)c1
Tested at: 1 µM
Quantity: remaining binding
BRSK1 (Homo sapiens, UniProt Q8TDC3); competitive binding panel; baseline: vehicle: 100%
PRKCQ (Homo sapiens, UniProt Q04759); competitive binding panel; baseline: vehicle: 90%
CSK (Homo sapiens, UniProt P41240); competitive binding panel; baseline: vehicle: 100%
SRPK1 (Homo sapiens, UniProt Q96SB4); competitive binding panel; baseline: vehicle: 100%
PIM2 (Homo sapiens, UniProt Q9P1W9); competitive binding panel; baseline: vehicle: 98%
CSNK1A1L (Homo sapiens, UniProt Q8N752); competitive binding panel; baseline: vehicle: 41%
DSTYK (Homo sapiens, UniProt Q6XUX3); competitive binding panel, measured: RIPK5; baseline: vehicle: 100%
MAP3K13 (Homo sapiens, UniProt O43283); competitive binding; LZK: 100%
FER (Homo sapiens, UniProt P16591); competitive binding panel; baseline: vehicle: 100%
CDK15 (Homo sapiens, UniProt Q96Q40); competitive binding; PFTAIRE2: 43%

Set 3
Structure (SMILES): CNCc1ccccc1-c1csc([C@H](C)Nc2nc(C)nc3cc(OC)c(OC)cc23)c1
Observed: cell-free assay
Technique: competition with immobilised ligand
Tested at: 1 µM
Quantity: remaining binding
PRPF4B (Homo sapiens, UniProt Q13523): 100%
MARK4 (Homo sapiens, UniProt Q96L34): 100%
KIT (Homo sapiens, UniProt P10721, A829P): 100%
PRKD3 (Homo sapiens, UniProt O94806): 100%
MTOR (Homo sapiens, UniProt P42345): 100%
RIOK3 (Homo sapiens, UniProt O14730): 100%
BMPR1B (Homo sapiens, UniProt O00238): 100%
GRK3 (Homo sapiens, UniProt P35626): 91%
PAK2 (Homo sapiens, UniProt Q13177): 97%
MAPK8 (Homo sapiens, UniProt P45983): 81%
ACVR2A (Homo sapiens, UniProt P27037): 76%
Ribosomal protein S6 kinase alpha-5, C-terminal kinase domain (RPS6KA5, Homo sapiens, UniProt O75582): 82%
PIM3 (Homo sapiens, UniProt Q86V86): 100%
STK17B (Homo sapiens, UniProt O94768): 100%
MAPK1 (Homo sapiens, UniProt P28482): 100%
EGFR (Homo sapiens, UniProt P00533, L858R): 100%
Tyrosine-protein kinase ABL1, phosphorylated (ABL1, Homo sapiens, UniProt P00519, Q252H): 84%
RET (Homo sapiens, UniProt P07949, M918T): 99%
GRK2 (Homo sapiens, UniProt P25098): 100%
NEK6 (Homo sapiens, UniProt Q9HC98): 100%
GSK3B (Homo sapiens, UniProt P49841): 100%

Set 4
Cell line: mouse MPNST tumor cells
Technique: high-content nuclear imaging
Measured: cell number
Tested at: 10 µM
Time: 12 h
Setting: mean of 2 replicates
Baseline: plate mean
Reading: higher = more cells
Quantity: nuclei count
O=C(O)c1ccccc1C(=O)Nc1ccc(S(=O)(=O)Nc2nccs2)cc1: 0.494 z-score
CCOC(=O)c1ccc(OC(=O)CCCCCNC(=N)N)cc1: 1.05 z-score
Oc1c(Cl)cc(Cl)c2cccnc12: 0.311 z-score
O=C(NNc1ccccc1)c1ccncc1: 3.42 z-score
CC1=C(C(=O)OCCN(Cc2ccccc2)c2ccccc2)C(c2cccc([N+](=O)[O-])c2)C(P2(=O)OCC(C)(C)CO2)=C(C)N1 (stereo not drawn): 2.73 z-score
C#C[C@]1(O)CC[C@H]2[C@@H]3[C@H](C)CC4=C(CCC(=O)C4)[C@H]3CC[C@@]21C: 4.6 z-score
Clc1ccc(C(Cn2ccnc2)OCc2ccsc2Cl)c(Cl)c1 (stereo not drawn): 3.31 z-score
COCCOCOc1cc2ccc(-c3ccc(C(=O)O)cc3)cc2cc1C12CC3CC(CC(C3)C1)C2: 0.306 z-score
Cc1cc(CN2CCN(c3c(Br)cnc4nc(-c5ccc(N6CCN(C)CC6)cc5)[nH]c34)CC2)no1: -2.68 z-score
O=C(O)/C=C/c1ccc(Cn2ccnc2)cc1: 2.17 z-score
CCCCC1CCC(c2nc(-c3ccncc3)no2)CC1 (stereo not drawn): -0.863 z-score
